# Results collected from several papers.
# Compare with care: the assays were run in different laboratories. Numbers after ± are the reported error.
Structure (SMILES),target or system,test,test system,conditions,how to read,endpoint,result
COc1cc(N2CCOCC2)ccc1Nc1ncc(Cl)c(Nc2ccccc2NS(C)(=O)=O)n1,PC-9 EGFR del19/T790M/C797S,"cell growth, MTT",,72 h,,IC50,0.24 ± 0.06 µM
CC(=O)OC1CCC2(OC1)OC(=CC#CC#CCO)C(OC(=O)CC(C)C)C2O (stereo not drawn),RAW264.7,"NO release, inhibitor, Griess",,LPS-stimulated,,IC50,> 50 µM
CC[C@H](C)[C@H](NC(=O)[C@H](CC(=O)O)NC(=O)[C@H](Cc1ccccc1)NC(=O)[C@H]1CCC[C@@H]1NC(=O)CN)C(=O)N[C@H](CC(=O)N[C@@H](CCCCN)C(=O)N[C@@H](CCCCN)C(=O)N[C@H]1CCC[C@@H]1C(=O)N[C@@H](C)C(=O)N[C@@H](CCCCN)C(=O)N[C@@H](CO)C(=O)N[C@H](CC(N)=O)Cc1ccccc1)[C@@H](C)CC,NIH 3T3,cytotoxicity,,,,IC50,43.3 µg/mL
COc1cc(-n2cc3cc(F)cc(C(N)=O)c3n2)cc(Cl)c1C1CC(O)(CCO)CC2CCCC21 (stereo not drawn),Caco-2,"cell growth or viability, MTT",,72 h,,IC50,0.33 µM
C=CC(=O)Nc1cc(Nc2nccc(-c3cn(C)c4ccccc34)n2)c(OC)cc1N(C)CCN(C)C,Ba/F3 EGFR,cell growth or viability,,72 h,,IC50,0.221 µM
C[C@@H]1CC[C@]2(C(=O)O)CC[C@]3(C)C(=CCC4[C@@](C)(CCC(=O)O)C(C(C)(C)O)CC[C@]43C)C2[C@H]1CO (stereo partly drawn),RAW264.7,"NO release, inhibitor, Griess",,LPS-stimulated,,IC50,> 100 µM
CC(C)c1ccc(N(C)c2ccc3c(c2)OCC[C@H]3CNc2cnccc2C(=O)O)cc1,P31-FUJ,"cell growth or viability, ATP luminescence",,7 days,,IC50,0.00432 µM
CC[C@H](C)[C@H](NC(=O)C[C@H](CCCCN)NC(=O)[C@H](CCCCN)NC(=O)C[C@@H](NC(=O)[C@@H](NC(=O)C[C@H](CCCCN)NC(=O)[C@H](Cc1ccccc1)NC(=O)C[C@H](CC(C)C)NC(=O)CN)[C@@H](C)CC)[C@@H](C)CC)C(=O)N[C@H](CC(=O)N[C@@H](CCCCN)C(=O)N[C@H](CC(=O)N[C@@H](Cc1ccccc1)C(N)=O)CC(C)C)CC(C)C,NIH 3T3,cytotoxicity,,,,IC50,7 µg/mL
O=C(N/N=C/c1ccc(C[n+]2ccccc2)cc1)c1ccc2ccc(C(=O)N/N=C/c3ccc(C[n+]4ccccc4)cc3)nc2n1,MYC parallel G4 DNA,FRET melting,,"1 µM, DNA 0.2 µM, with: duplex DNA competitor 10 µM",,ΔTm,6.6 ± 0.2 °C
CC[C@H](C)[C@H](NC(=O)[C@H]1CCC[C@@H]1NC(=O)[C@H](CCCCN)NC(=O)[C@H](CCCCN)NC(=O)C[C@H](C)NC(=O)[C@H](CC(C)C)NC(=O)[C@H](CCCCN)NC(=O)[C@H]1CCC[C@@H]1NC(=O)[C@H](CC(C)C)NC(=O)CN)C(=O)N[C@@H](CCCCN)C(=O)N[C@@H](CO)CC(=O)N[C@@H](Cc1ccccc1)C(N)=O,NIH 3T3,cytotoxicity,,,,IC50,355 µg/mL
O=C(NCc1cc(F)cc(F)c1)[C@@]1(O)CCN(c2ccc3[nH]ccc3c2)C1=O,SW982,cell growth or viability,,,,IC50,0.11 µM
"Cc1cc(C)cc(COc2cc3c(cc2OCc2cc(C)cc(C)c2)[C@@H]2C[C@](O)(Cc4cn(Cc5ccc(F)cc5)nn4)C[C@H](C)N2CC3)c1 (single isomer, unassigned)",ASPC1,"cell growth or viability, MTT",,,,IC50,0.387 µM
CC(C)C[C@H](NC(=O)CN)C(=O)N[C@H]1CCC[C@@H]1C(=O)N[C@@H](CCCCN)C(=O)N[C@@H](CC(C)C)C(=O)N[C@@H](C)CC(=O)N[C@@H](CCCCN)C(=O)N[C@@H](CCCCN)C(=O)N[C@H]1CCC[C@@H]1C(=O)N[C@@H](CC(C)C)C(=O)N[C@@H](CCCCN)C(=O)N[C@@H](CO)CC(=O)N[C@@H](Cc1ccccc1)C(N)=O,NIH 3T3,cytotoxicity,,,,IC50,238 µg/mL
CS(=O)(=O)c1sc(NC(=O)Nc2ccc(Cl)cc2)c2c1C=CCC2,PANC-1 NUPR1 knockout clone KO1,cell viability,,72 h,,IC50,22 µM
CC(C)C[C@](O)(C(=O)OCc1ccc(O[C@@H]2O[C@H](CO)[C@@H](O)[C@H](O)[C@H]2O)cc1)[C@H](O)C(=O)OCc1ccc(O[C@@H]2O[C@H](CO)[C@@H](O)[C@H](O)[C@H]2O)cc1,MDA-MB-231 breast cancer,"cell viability, MTT",DMEM with 10% FBS,48 h,,IC50,> 200 µM
CCn1cc(-c2cccc(C(F)(F)F)c2)c2sc(C(=N)NC3CCS(=O)(=O)CC3)cc2c1=O,EOL1,"cell growth or viability, ATP luminescence",,,,IC50,6.25 µM
C=CC(=O)N1CCCC(n2c(=O)c3ncccc3n(Cc3ccc(Oc4ccccc4)cc3)c2=O)C1 (stereo not drawn),L-82,"cell growth or viability, MTT",,72 h,,IC50,2 µM
CC[C@H](C)[C@H](NC(=O)C[C@H](CCCCN)NC(=O)[C@H](CCCCN)NC(=O)C[C@@H](NC(=O)[C@@H](NC(=O)C[C@H](CCCCN)NC(=O)[C@H](Cc1ccccc1)NC(=O)C[C@H](CC(C)C)NC(=O)CN)[C@@H](C)CC)[C@@H](C)CC)C(=O)N[C@H](CC(=O)N[C@@H](CCCCN)C(=O)N[C@@H](CO)CC(=O)N[C@@H](Cc1ccccc1)C(N)=O)CC(C)C,NIH 3T3,cytotoxicity,,,,IC50,20.2 µg/mL
Cc1cc(C)cc(COc2cc3c(cc2OCc2cc(C)cc(C)c2)C2CC(O)CC(C)N2CC3)c1 (stereo not drawn),ASPC1,"cell growth or viability, MTT",,,,IC50,0.965 µM
CCNC(=S)NN=Cc1c2ccccc2cc2ccccc12.Cc1ccc(C(C)C)cc1.[Cl-].[Cl-].[Ru+2],Caco-2,"cytotoxicity, MTS",,24 h,,IC50,256 ± 4 µM
CC(=O)N[C@@H](CCCNC(=N)N)C(=O)N[C@@H](Cc1c[nH]c2ccccc12)C(=O)N[C@@H](CCCNC(=N)N)C(=O)N[C@@H](Cc1c[nH]c2ccccc12)C(=O)N[C@@H](CCCNC(=N)N)C(=O)N[C@@H](Cc1c[nH]c2ccccc12)C(N)=O,MCF-10A,cell viability,,"48 h, dark",,IC50,> 100 µM
CN(C)C(=S)NN=C(c1ccccn1)c1ccccn1,MCF-10A,"cell growth or viability, MTT",,48 h,,IC50,25.1 µM
Cc1cc([C@H](C(=O)N2C[C@H](O)C[C@H]2C(=O)N[C@@H](CC(=O)N2CCC(N3CCC(C#Cc4ccc(C(=O)N[C@H]5C(C)(C)[C@H](Oc6ccc(C#N)c(Cl)c6)C5(C)C)cc4)CC3)CC2)c2ccc(-c3scnc3C)cc2)C(C)C)on1,HCC1428,"cell growth or viability, CCK-8",,7 days,,IC50,0.12 µM
COc1cc(-c2cn(C)c(=O)c3cnccc23)c(OC)cc1CN(C)C,EOL1,"cell growth or viability, ATP luminescence",,,,IC50,6.6 µM
O=C1c2cccc[c]2[Au-]([Cl])([Cl])[n+]2ccccc21,A-375,"cell growth or viability, resazurin",,72 h,,IC50,19 µM
CC(=O)OC[C@H]1O[C@@H](Oc2ccc(C#[C][Pt+])cc2)[C@H](OC(C)=O)[C@@H](OC(C)=O)[C@@H]1OC(C)=O.O=S(=O)([O-])C(F)(F)F.c1ccc(-c2cccc(-c3ccccn3)n2)nc1,PLC,cell growth or viability,,48 h,,IC50,> 100 µM
Cc1ncsc1-c1ccc(C(C)NC(=O)C2CC(O)CN2C(=O)C(NC(=O)CCCCCCCCCCN2CCCC(Nc3ncc(Cl)c(Nc4ccccc4S(=O)(=O)C(C)C)n3)C2)C(C)(C)C)cc1 (stereo not drawn),22Rv1,"RNA-seq, refers to: SBNO2 mRNA",,concentration not given,baseline: DMSO,log2 fold change,-1.24
CNS(=O)(=O)Nc1nccc(Cc2c(C)c3ccc(Oc4ncccc4F)cc3oc2=O)c1F,COLO 201,cell viability,,7 days,,IC50,0.00408 µM
Cc1cc(C(=O)N2CCNCCNCCNCC2)c(O)c(C(=O)N2CCNCCNCCNCC2)c1,WI-38,"cell growth or viability, MTT",,24 h,,IC50,> 10000 µM
COC1CN([C@H]2CC[C@H]([C@@]3(C)Oc4c(Cl)cc(C(=O)NCc5c(SC)cc(C)[nH]c5=O)c(C)c4O3)CC2)C1,,"RNA-seq, refers to: CADM3 mouse homolog","mouse, HT-1376 xenograft, whole blood",dose not given,baseline: vehicle,log2 fold change,1.65
Cc1ccc([N+](=O)[O-])cc1S(=O)(=O)N(C)/N=C/c1cnc2ccc(Br)cn12,RXF 393,MTS,,NCI60 panel,,IC50,0.08 µM
Cn1ncc(-c2ccc3c(=O)[nH]nc(CN)c3c2)c1-c1c(F)c(Cl)cc(OC2CC2)c1C#N,HuP-T4,"cell viability, inhibitor, CellTiter-Glo",,"120 h, baseline-subtracted",,IC50,0.02 µM
NC(=O)c1ccc(-c2ccccc2Cl)c2c3c([nH]c12)CC[C@@H](N)C3,U-937,cell growth or viability,,,,IC50,0.00893 µM
CCOc1cncc(-c2ccc(NC(=O)C3(c4ccnc(NS(=O)(=O)C5CC5)n4)CCOCC3)nc2)n1,EOL1,"cell proliferation, CellTiter-Glo",,72 h,,IC50,0.008 µM
CC[n+]1cccc2cc(/C=N/NC(=O)N/N=C/c3ccc4c(ccc[n+]4CC)c3)ccc21,MYC parallel G4 DNA,FRET melting,,"1 µM, DNA 0.2 µM",,ΔTm,4.7 ± 0.9 °C
Nc1ncc(-c2cc(-c3cnn(CC(F)(F)F)c3)ncc2F)nc1C(=O)NC1CNCC(F)C1 (stereo not drawn),DLD-1,cell growth or viability,,,,IC50,7.03 µM
CN1CCC(N[C@H]2CCc3[nH]c4c(C(N)=O)ccc(-c5ccccc5Cl)c4c3C2)CC1,U-937,cell growth or viability,,,,IC50,0.22 µM
Cc1cc(C)cc(NC(=O)N(Cc2ccc(C(=O)NO)cc2)OCc2ccccc2)c1,MOLM-13,cell viability,,72 h,,IC50,1.7 ± 0.069 µM
CN(C)CCOc1cc(NC(=O)c2cccc(C(=O)Nc3cc(OCCN(C)C)c4ccccc4n3)n2)nc2ccccc12,WI-38,"cell growth or viability, ATP luminescence",,72 h,,IC50,2.1 µM

# Excerpt of the above:
Structure (SMILES),target or system,test,test system,conditions,how to read,endpoint,result
CCOc1cncc(-c2ccc(NC(=O)C3(c4ccnc(NS(=O)(=O)C5CC5)n4)CCOCC3)nc2)n1,EOL1,"cell proliferation, CellTiter-Glo",,72 h,,IC50,0.008 µM
C=CC(=O)N1CCCC(n2c(=O)c3ncccc3n(Cc3ccc(Oc4ccccc4)cc3)c2=O)C1 (stereo not drawn),L-82,"cell growth or viability, MTT",,72 h,,IC50,2 µM
Cc1ccc([N+](=O)[O-])cc1S(=O)(=O)N(C)/N=C/c1cnc2ccc(Br)cn12,RXF 393,MTS,,NCI60 panel,,IC50,0.08 µM
CC[C@H](C)[C@H](NC(=O)C[C@H](CCCCN)NC(=O)[C@H](CCCCN)NC(=O)C[C@@H](NC(=O)[C@@H](NC(=O)C[C@H](CCCCN)NC(=O)[C@H](Cc1ccccc1)NC(=O)C[C@H](CC(C)C)NC(=O)CN)[C@@H](C)CC)[C@@H](C)CC)C(=O)N[C@H](CC(=O)N[C@@H](CCCCN)C(=O)N[C@@H](CO)CC(=O)N[C@@H](Cc1ccccc1)C(N)=O)CC(C)C,NIH 3T3,cytotoxicity,,,,IC50,20.2 µg/mL
